{"data": "Experimental data of several laboratories", "note": "Parts stem from different laboratories: compare values within a part only. Positions count from the first letter of the parent shown."}
{"data": "Set 1", "target": "PABPC1L2, full length, GST fusion (mouse, UniProt A0ABA7IW68)", "technique": "RNAcompete", "form": "RNA", "matrix": "in vitro", "concentration": "20 nM", "setting": "7-mer, probes averaged, single round", "baseline": "mean of 7-mers", "reading": "higher = stronger binding", "Construct (chain)": "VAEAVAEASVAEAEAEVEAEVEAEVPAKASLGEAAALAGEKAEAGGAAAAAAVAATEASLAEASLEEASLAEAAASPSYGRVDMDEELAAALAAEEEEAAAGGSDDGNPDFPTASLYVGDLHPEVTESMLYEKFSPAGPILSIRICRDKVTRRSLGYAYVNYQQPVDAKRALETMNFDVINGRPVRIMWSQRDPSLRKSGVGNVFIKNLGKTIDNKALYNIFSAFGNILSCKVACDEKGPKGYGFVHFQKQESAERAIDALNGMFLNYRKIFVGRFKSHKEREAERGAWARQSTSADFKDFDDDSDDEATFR"}
{"Sequence": "AUCCUAU", "7-mer Z-score": -0.316}
{"Sequence": "UCCACCA", "7-mer Z-score": -0.17}
{"Sequence": "CAAAGAG", "7-mer Z-score": 0.617}
{"Sequence": "CUGAAGG", "7-mer Z-score": -0.0047}
{"Sequence": "GAAAUAG", "7-mer Z-score": 1.35}
{"Sequence": "AAUAGGU", "7-mer Z-score": 0.215}
{"Sequence": "UACCAAA", "7-mer Z-score": 0.517}
{"Sequence": "GUGACUU", "7-mer Z-score": -0.277}
{"data": "Set 2", "partner": "ARF10 575-693 (Arabidopsis thaliana, UniProt Q9SKN5)", "technique": "two-hybrid", "baseline": "out of 4 tests", "reading": "higher = firmer interaction", "B1": "IAA29 (Arabidopsis thaliana, UniProt Q93WC4); chain MELDLGLSLSPHKSSKLGFNFDLNKHCAIEGAASCLGTEKLRFEATFGLGNVEENCYMPKQRLFALNGQPNEEDEDPLESESSIVYDDEEENSEVVGWPPVKTCMIKYGSYHHRHIRNHHHCPYHHRGRRITAMNNNISNPTTATVGSSSSSSISSRSSMYVKVKMDGVAIARKVDIKLFNSYESLTNSLITMFTEYEDCDREDTNYTFTFQGKEGDWLLRGDVTWKIFAESVHRISIIRDRPCAYTRCLF", "B2": "IAA33 (Arabidopsis thaliana, UniProt Q9FKM7); chain MNSFEPQSQDSLQRRFHQDNSTTQQPRDTTTPFIPKPASKNHNNSNSSSGAAGRSFQGFGLNVEDDLVSSVVPPVTVVLEGRSICQRISLDKHGSYQSLASALRQMFVDGADSTDDLDLSNAIPGHLIAYEDMENDLLLAGDLTWKDFVRVAKRIRILPVKGNTRQVKRNE", "B3": "ARF6 790-935 (Arabidopsis thaliana, UniProt Q9ZTX8); chain SENPQSNTFVKVYKSGSFGRSLDISKFSSYHELRSELARMFGLEGQLEDPVRSGWQLVFVDRENDVLLLGDDPWPEFVSSVWCIKILSPQEVQQMGKRGLELLNSAPSSNNVDKLPSNGNCDDFGNRSDPRNLGNGIASVGGSFNY", "B4": "IAA18 (Arabidopsis thaliana, UniProt O24408); chain MEGYSRNGEISPKLLDLMIPQERRNWFHDEKNSVFKTEEKKLELKLGPPGEEDDDESMIRHMKKEPKDKSILSLAGKYFSPSSTKTTSHKRTAPGPVVGWPPVRSFRKNLASGSSSKLGNDSTTSNGVTLKNQKCDAAAKTTEPKRQGGMFVKINMYGVPIGRKVDLSAHNSYEQLSFTVDKLFRGLLAAQRDFPSSIEDEKPITGLLDGNGEYTLTYEDNEGDKMLVGDVPWQMFVSSVKRLRVIKTSEISSALTYGNGKQEKMRR", "Residues (chain)": "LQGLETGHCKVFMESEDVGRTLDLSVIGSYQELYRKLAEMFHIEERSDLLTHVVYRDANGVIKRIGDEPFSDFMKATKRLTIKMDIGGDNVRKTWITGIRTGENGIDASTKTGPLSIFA"}
{"Sequence": "B1 (IAA29)", "positive tests": 0}
{"Sequence": "B2 (IAA33)", "positive tests": 4}
{"Sequence": "B3 (ARF6 790-935)", "positive tests": 0}
{"Sequence": "B4 (IAA18)", "positive tests": 0}
{"data": "Set 3", "target": "ABI1, truncated, D143A, DHFR fusion (Arabidopsis thaliana)", "technique": "DHFR PCA, deep sequencing", "matrix": "yeast", "setting": "methotrexate growth selection, single substitutions", "with": "(+)-ABA 200 µM", "baseline": "wild-type fitted maximum", "reading": "higher = stronger binding", "starting sequence": "PYL1, truncated, DHFR fusion (Arabidopsis thaliana); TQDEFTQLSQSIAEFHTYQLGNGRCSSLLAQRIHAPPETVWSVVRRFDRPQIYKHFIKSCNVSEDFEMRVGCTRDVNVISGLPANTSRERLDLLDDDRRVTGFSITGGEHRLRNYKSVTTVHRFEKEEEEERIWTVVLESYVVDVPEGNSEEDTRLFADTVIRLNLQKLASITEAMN"}
{"Variant": "V70Q", "relative binding score": "94.4%"}
{"Variant": "E129N", "relative binding score": "98.8%"}
{"Variant": "I52W", "relative binding score": "90.2%"}
{"Variant": "T6S", "relative binding score": "99.8%"}
{"Variant": "T160E", "relative binding score": "31.1%"}
{"Variant": "V137A", "relative binding score": "49.2%"}
{"Variant": "V118K", "relative binding score": "93.4%"}
{"Variant": "N165H", "relative binding score": "50.3%"}
{"data": "Other studies, line by line", "starting sequence": "viral docking peptide; CKVKRKLFGSENI"}
{"Variant": "E11A", "target": "CCNB2, cyclin fold, Cln2 fusion (human)", "test": "yeast growth competition, sequencing", "test system": "yeast", "setting": "weak parent motif", "scale": "baseline: not given, higher = stronger binding", "measurement": "normalised enrichment score", "result": 0.823}
{"note": "Repeated from above (set 3):"}
{"Variant": "I52W", "relative binding score": "90.2%"}
{"Variant": "T6S", "relative binding score": "99.8%"}
